# Measured values gathered from unrelated publications.
# Each numbered part is a random draw from the data of one study; scales do not carry over between parts. Substitutions count along the parent as printed.
# UniProt P54753, sequence (whole entry, looked up): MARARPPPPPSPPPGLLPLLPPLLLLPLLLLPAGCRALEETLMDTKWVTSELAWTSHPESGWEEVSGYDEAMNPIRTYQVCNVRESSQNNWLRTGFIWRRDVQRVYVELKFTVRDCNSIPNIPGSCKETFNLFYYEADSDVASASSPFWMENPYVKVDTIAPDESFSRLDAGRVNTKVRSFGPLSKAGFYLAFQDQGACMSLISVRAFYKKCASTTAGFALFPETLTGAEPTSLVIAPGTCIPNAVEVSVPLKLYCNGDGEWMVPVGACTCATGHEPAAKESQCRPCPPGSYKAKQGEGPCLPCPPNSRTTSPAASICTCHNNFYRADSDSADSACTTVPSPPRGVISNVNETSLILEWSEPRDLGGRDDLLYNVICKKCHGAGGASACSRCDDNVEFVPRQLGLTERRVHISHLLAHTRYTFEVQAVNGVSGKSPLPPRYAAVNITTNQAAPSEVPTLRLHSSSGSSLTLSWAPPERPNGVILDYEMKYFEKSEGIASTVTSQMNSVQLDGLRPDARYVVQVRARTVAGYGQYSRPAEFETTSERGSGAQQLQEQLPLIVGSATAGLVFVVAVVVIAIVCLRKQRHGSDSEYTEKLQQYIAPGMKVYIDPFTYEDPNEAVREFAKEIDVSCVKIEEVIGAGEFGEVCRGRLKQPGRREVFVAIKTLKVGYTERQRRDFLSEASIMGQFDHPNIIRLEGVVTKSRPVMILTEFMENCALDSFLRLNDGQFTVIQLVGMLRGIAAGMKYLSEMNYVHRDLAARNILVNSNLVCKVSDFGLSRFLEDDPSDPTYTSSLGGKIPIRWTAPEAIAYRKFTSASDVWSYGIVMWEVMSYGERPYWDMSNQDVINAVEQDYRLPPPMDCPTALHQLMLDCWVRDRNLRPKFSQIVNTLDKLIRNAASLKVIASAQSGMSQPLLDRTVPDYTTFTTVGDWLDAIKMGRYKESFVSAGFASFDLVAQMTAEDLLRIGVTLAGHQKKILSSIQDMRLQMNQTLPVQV
# UniProt P42679, sequence (whole entry, looked up): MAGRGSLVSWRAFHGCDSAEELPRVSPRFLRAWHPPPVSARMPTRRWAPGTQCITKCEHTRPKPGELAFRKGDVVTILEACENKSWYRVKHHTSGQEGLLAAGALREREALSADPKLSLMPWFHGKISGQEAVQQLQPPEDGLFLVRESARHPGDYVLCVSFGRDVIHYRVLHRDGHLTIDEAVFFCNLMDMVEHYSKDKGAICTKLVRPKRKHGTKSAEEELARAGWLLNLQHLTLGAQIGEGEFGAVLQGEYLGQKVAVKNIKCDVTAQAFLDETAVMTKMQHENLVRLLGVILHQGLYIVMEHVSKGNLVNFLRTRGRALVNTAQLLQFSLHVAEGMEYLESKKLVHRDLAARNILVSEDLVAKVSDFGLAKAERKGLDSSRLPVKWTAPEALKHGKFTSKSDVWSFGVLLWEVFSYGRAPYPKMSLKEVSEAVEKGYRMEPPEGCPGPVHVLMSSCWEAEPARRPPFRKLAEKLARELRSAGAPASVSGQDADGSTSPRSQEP
# UniProt Q9UM73, sequence (whole entry, looked up): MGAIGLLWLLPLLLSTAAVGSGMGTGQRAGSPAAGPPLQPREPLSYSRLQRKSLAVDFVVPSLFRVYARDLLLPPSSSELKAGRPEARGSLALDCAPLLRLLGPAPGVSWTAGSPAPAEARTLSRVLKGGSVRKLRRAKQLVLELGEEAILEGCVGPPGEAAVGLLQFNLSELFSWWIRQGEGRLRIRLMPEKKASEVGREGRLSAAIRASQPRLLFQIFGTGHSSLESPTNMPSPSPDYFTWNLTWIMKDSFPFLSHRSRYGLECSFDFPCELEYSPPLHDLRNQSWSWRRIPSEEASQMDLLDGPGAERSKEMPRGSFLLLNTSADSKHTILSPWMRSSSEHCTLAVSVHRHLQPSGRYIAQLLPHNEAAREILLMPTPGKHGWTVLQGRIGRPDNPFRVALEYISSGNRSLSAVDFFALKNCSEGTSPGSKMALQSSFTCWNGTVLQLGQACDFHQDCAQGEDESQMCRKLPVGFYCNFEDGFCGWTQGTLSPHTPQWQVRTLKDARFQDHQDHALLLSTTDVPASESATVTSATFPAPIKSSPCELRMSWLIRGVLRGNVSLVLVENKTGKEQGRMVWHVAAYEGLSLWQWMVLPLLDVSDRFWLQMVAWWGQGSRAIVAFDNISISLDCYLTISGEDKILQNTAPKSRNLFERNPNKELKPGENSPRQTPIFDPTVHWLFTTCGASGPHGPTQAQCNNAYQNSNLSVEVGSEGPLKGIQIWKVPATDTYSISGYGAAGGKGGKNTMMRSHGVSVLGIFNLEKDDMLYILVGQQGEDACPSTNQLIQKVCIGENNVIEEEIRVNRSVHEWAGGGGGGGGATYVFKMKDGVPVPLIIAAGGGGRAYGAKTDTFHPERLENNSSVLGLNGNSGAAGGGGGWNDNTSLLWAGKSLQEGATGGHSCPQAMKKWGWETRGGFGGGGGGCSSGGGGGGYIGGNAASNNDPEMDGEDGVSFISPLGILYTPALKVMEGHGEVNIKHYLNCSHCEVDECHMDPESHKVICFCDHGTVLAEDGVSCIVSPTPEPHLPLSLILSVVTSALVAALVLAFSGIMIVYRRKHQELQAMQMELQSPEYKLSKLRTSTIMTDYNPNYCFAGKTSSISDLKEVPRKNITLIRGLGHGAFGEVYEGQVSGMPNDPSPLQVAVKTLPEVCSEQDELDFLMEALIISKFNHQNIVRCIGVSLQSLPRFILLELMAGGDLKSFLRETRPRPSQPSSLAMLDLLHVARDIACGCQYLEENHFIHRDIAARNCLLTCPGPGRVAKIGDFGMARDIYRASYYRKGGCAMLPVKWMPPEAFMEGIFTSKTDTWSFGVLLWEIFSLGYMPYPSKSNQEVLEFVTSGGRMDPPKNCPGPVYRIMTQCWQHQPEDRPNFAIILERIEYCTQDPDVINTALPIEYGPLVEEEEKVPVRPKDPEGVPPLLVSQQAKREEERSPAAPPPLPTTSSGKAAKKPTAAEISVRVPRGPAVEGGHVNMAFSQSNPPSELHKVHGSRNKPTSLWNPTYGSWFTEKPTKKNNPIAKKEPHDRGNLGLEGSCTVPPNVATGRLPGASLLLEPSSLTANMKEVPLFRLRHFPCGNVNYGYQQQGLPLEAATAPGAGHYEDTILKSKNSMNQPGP
# UniProt O75582, sequence (whole entry, looked up): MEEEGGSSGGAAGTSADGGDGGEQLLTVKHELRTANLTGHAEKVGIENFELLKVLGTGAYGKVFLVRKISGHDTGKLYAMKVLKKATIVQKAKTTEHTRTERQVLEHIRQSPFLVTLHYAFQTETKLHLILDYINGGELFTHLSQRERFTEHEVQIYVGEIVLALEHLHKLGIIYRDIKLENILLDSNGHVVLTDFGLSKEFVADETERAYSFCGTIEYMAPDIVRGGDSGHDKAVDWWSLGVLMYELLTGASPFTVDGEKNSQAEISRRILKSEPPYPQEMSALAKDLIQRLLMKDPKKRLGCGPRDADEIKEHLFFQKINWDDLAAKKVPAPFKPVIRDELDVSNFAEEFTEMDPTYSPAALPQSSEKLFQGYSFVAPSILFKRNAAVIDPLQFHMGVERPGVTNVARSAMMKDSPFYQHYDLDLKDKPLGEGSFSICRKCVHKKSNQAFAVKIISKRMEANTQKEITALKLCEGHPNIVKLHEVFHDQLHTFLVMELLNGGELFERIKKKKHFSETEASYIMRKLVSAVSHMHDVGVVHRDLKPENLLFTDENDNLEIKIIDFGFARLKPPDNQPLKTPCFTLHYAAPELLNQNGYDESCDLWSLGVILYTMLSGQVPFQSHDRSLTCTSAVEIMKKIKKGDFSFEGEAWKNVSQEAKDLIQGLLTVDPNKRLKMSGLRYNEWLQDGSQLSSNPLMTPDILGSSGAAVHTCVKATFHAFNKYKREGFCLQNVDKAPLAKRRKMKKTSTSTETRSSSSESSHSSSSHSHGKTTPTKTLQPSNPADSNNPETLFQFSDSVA

# Sample 1 — observed: enzyme activity; action: inhibitor; concentration: 0.5 µM; reference: control
# Target: Dual specificity protein kinase TTK (TTK, Homo sapiens, UniProt P33981)
# UniProt P33981, sequence (whole entry, looked up): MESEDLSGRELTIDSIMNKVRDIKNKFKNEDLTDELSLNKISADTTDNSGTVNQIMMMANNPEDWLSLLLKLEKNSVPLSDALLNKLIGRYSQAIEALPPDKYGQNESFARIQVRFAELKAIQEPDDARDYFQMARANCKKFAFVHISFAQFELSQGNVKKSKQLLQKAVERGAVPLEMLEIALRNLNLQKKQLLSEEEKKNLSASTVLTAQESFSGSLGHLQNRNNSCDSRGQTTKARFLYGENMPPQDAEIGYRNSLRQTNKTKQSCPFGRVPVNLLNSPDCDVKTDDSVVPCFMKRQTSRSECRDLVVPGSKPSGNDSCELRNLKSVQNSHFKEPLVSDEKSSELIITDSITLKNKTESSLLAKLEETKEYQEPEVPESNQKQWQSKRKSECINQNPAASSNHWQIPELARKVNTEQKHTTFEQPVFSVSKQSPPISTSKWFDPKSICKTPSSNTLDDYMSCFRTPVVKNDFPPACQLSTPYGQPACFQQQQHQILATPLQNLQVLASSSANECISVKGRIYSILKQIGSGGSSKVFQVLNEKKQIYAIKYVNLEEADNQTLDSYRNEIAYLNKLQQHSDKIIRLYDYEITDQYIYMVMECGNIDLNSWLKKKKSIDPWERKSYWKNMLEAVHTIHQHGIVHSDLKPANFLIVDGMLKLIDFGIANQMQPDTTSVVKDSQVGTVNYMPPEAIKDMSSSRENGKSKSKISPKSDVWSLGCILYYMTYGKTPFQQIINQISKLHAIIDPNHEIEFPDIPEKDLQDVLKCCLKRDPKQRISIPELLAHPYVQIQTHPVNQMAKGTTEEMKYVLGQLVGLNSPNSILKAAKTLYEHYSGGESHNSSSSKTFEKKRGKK
Structure (SMILES),remaining activity
COc1ccc(OC)c2c(=S)c3ccccc3[nH]c12,99.1%
CO[C@H]1C[C@@H]2CC[C@@H](C)[C@@](O)(O2)C(=O)C(=O)N2CCCC[C@H]2C(=O)O[C@H]([C@H](C)C[C@@H]2CC[C@@H](O)[C@H](OC)C2)CC(=O)[C@H](C)/C=C(\C)[C@@H](O)[C@@H](OC)C(=O)[C@H](C)C[C@H](C)/C=C/C=C/C=C/1C,117%
Nc1ncnc2n[nH]c(Nc3ccc(F)cc3)c12,96.1%
Oc1ccc(-c2nc(-c3ccncc3)c(-c3ccc(F)cc3)[nH]2)cc1,103%
CNC(=O)c1cc(Oc2ccc(NC(=O)Nc3ccc(Cl)c(C(F)(F)F)c3)cc2)ccn1,104%
Cc1nc(-c2ccccc2)c(-c2ccncc2)o1,100%
O=C(CCCc1ccc(-c2ccccc2F)cc1)Nc1ccc(O)cc1,89.5%
CCOC(=O)c1c(C)[nH]c(/C=C2\C(=O)Nc3ccccc32)c1C,96.6%
N#CC(C#N)=C(N)/C(C#N)=C/c1ccc(O)cc1,94.4%
O=S(=O)(c1cccc2cnccc12)N1CCCNCC1,99.1%
CC(C)[C@H](CO)Nc1nc(Nc2cc(N)cc(Cl)c2)c2ncn(C(C)C)c2n1,84.5%
COc1cc2ncnc(Nc3ccc(Oc4ccccc4)cc3)c2cc1OC,90%
COc1cc2ncnc(Nc3ccc(F)c(Cl)c3)c2cc1OCCCN1CCOCC1,96.3%
COc1ccc(CNC(=O)Nc2ncc([N+](=O)[O-])s2)cc1,98.9%
O=c1c2ccccc2[nH]c(=S)n1CCN1CCC(=C(c2ccc(F)cc2)c2ccc(F)cc2)CC1,96.3%

# Sample 2 — target: CCNE2, cyclin fold, Cln2 fusion (human); method: yeast growth competition, sequencing; medium: yeast; setting: strong parent motif; reference: not given; direction: higher = stronger binding
# Starting sequence: E2F1 docking peptide (human); PPVKRRLDFETDH
Change,normalised enrichment score
R5K,1.93
K4W,1.28
F9G,0.195
D12F,6.69
T11L,5.77
D12Q,6.1
R6G,0.391
D8F,7.08

# Sample 3 — method: RNA Bind-n-Seq; form: RNA; medium: in vitro; concentration: 20 nM; setting: 6-mer, flanks averaged, single round; with: 150 mM LiCl; reference: input library; direction: higher = stronger binding
# Target: TAR DNA-binding protein 43, full length, His tag (TARDBP, Homo sapiens, UniProt Q13148, residues 1-414)
Strand,6-mer enrichment (R)
GGCGGC,1.12
ACGAUG,0.87
CCACCA,0.994
CGGUGG,1.14
AUGGGC,1.05
AGGAAG,1
UGGAUG,1.26
GCCGUU,0.948

# Sample 4 — SMILES: CC(C)(O)c1cncc(-c2nc3ccc(F)cc3n2C2CC2)c1; observed: cell-free assay; method: competition with immobilised ligand; concentration: 1 µM
target,remaining binding [%]
"Ribosomal protein S6 kinase alpha-5, C-terminal kinase domain (RPS6KA5, Homo sapiens, UniProt O75582)",100
"EPHB3 (Homo sapiens, UniProt P54753)",100
"MATK (Homo sapiens, UniProt P42679)",100
"PIK3CB (Homo sapiens, UniProt P42338)",81
"ALK (Homo sapiens, UniProt Q9UM73)",77

# A few entries again (sample 1):
Structure (SMILES),remaining activity
CNC(=O)c1cc(Oc2ccc(NC(=O)Nc3ccc(Cl)c(C(F)(F)F)c3)cc2)ccn1,104%
COc1ccc(CNC(=O)Nc2ncc([N+](=O)[O-])s2)cc1,98.9%
N#CC(C#N)=C(N)/C(C#N)=C/c1ccc(O)cc1,94.4%
